Measured values collected from several papers.
Every numbered part comes from another study and shows a few of its results, in no order. Positions count from the first letter of the parent shown.

Series 1 — method: RNA Bind-n-Seq; molecule type: RNA; medium: in vitro; tested at: 1 µM; setting: whole 134-nt RNA, ends assumed; added: 150 mM KCl; baseline: input library; reading: higher = stronger binding
Target: Ras GTPase-activating protein-binding protein 1, C-terminal RGG region (G3BP1, Homo sapiens, UniProt Q13283)
Chain of UniProt Q13283 (whole entry, looked up): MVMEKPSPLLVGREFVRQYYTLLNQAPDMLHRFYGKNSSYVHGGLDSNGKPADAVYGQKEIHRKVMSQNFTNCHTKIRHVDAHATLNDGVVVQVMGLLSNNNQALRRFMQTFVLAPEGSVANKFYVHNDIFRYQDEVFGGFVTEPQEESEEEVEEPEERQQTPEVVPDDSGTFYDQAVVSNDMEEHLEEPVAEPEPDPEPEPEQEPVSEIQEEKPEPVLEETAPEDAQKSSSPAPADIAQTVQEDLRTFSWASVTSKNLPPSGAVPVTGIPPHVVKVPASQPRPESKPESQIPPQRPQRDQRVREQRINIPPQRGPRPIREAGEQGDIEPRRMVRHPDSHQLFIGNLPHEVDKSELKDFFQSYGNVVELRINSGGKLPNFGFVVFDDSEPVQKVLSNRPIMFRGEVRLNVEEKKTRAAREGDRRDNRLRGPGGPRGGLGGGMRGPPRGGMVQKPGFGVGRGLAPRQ
Strand | log2 enrichment
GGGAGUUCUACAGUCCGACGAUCGUCCUGUGCUACACAUCGUAUGUACCGAAUCAAACCCCCCCAAACCCAAAUUUUUAAAAAAGUAUUAUGUUACGCCGUUCGGAUCUGCACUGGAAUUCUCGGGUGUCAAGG | -0.692
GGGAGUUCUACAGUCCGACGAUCUGGGAGGUGGAUUUUGUUUAUUUUGUUAGCUCAUUUCCAGGGGUGGGAAUUUUUUUUUAAUAUGUGUCAUGAAUAAAGUUGUUUUUGAAAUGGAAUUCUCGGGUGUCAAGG | 3.35
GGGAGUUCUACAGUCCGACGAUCACCAUGCAGGUGGGCAAAAUUGGGAAGUGGGGCAAGGGGGGGAUAGGGAGGGGGGUAACACUUUGGGAACAGGUGGUCCCAGGUCGUUUCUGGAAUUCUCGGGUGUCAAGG | -1.15
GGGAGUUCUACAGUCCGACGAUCGCAGGAAGUAAAAACAAAUGGAAAUGCUUCGGAUAGUGGCAGGGGUGGGGGUGGCUAAGGAAAGGGUGGGAUGGGAGUGGGUAAAGAGUUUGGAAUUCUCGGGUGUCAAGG | 0.775
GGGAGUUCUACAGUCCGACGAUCUCAAGUCCUGUGCUACACAUCGUAUGUACCGAAUCGGGAGGGUGGGAAAAAGGGAAAGUAUUAUGUUACGCCGUUCGGAUCUGCACUUCCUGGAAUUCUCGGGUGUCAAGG | 1.46
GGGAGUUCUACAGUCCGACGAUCUGGCCCUGGUGGCAUGCGGGGAGGAAGAGGUGGCCUCAUGGAUCGUGGUGGUCCCGGCGGAAUGUUCAGAGGUGGCCGUGGUGGAGACAGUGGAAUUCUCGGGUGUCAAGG | 2.08
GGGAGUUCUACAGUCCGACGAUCGCAGGAAGUAAAAACAAAGGGAAAUGCUUCGGAUAGUGGCAGGGGUGGGGGUUGCUAAGGAAAGGGUGGGAUGGGAGUGGGUAAAGAGUUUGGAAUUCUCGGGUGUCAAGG | 2.12
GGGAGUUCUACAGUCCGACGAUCCAAGUCCUGUGCUACACAUCGUAUGUACCGAAUCGGGAGGGAGGGUUUUUUUGGGAAAGUAUUAUGUUACGCCGUUCGGAUCUGCACUUCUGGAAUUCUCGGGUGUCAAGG | 1.18
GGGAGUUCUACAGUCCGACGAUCGCAGGAAGUAAAAACAAAUUGAAAUGCUUCGGAUAGUGGCAGGGGUGGGGGUUGCUAAGGAAAGGGUGGGAUGGGAGUGGGUAAAGAGUUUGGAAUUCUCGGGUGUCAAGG | 1.86

Series 2 — method: DHFR PCA, dose-response; medium: yeast; added: (+)-ABA, dose series; reading: lower = more sensitive
Target: ABI1, truncated, D143A, DHFR fusion (Arabidopsis thaliana, UniProt P49597)
Setting: Hill fit, not affinity, not high confidence
Starting sequence: PYL1, truncated, DHFR fusion (Arabidopsis thaliana, UniProt Q8VZS8); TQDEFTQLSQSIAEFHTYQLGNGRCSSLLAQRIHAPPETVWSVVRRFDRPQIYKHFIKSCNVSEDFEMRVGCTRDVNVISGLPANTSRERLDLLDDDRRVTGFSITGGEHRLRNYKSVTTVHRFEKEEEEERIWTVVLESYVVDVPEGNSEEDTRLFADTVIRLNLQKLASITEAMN
Change | ABA EC50 [µM]
F47H | 5.96
P50W | 374
P50E | 6.19
F56D | 2.37
I105Q | 10.8
F47Q | 32.7
I162W | 2.78
V40R | 60.7
K54G | 0.203
W41I | 0.0257
N165C | 703
T106I | 0.0366
F157E | 4.59
V78M | 78.1
A84I | 0.417
L169E | 287
H110C | 413
L112S | 8.63
L82N | 657
N177M | 1.62
S140V | 2.76
S80D | 156

Series 3 — method: universal PBM; molecule type: double-stranded DNA, one strand shown; medium: in vitro; tested at: 600 nM; reading: higher = stronger binding
Target: Sal-like protein 4, full length isoform A (SALL4, Homo sapiens, UniProt Q9UJQ4, residues 1-1053)
Chain of UniProt Q9UJQ4 (whole entry, looked up): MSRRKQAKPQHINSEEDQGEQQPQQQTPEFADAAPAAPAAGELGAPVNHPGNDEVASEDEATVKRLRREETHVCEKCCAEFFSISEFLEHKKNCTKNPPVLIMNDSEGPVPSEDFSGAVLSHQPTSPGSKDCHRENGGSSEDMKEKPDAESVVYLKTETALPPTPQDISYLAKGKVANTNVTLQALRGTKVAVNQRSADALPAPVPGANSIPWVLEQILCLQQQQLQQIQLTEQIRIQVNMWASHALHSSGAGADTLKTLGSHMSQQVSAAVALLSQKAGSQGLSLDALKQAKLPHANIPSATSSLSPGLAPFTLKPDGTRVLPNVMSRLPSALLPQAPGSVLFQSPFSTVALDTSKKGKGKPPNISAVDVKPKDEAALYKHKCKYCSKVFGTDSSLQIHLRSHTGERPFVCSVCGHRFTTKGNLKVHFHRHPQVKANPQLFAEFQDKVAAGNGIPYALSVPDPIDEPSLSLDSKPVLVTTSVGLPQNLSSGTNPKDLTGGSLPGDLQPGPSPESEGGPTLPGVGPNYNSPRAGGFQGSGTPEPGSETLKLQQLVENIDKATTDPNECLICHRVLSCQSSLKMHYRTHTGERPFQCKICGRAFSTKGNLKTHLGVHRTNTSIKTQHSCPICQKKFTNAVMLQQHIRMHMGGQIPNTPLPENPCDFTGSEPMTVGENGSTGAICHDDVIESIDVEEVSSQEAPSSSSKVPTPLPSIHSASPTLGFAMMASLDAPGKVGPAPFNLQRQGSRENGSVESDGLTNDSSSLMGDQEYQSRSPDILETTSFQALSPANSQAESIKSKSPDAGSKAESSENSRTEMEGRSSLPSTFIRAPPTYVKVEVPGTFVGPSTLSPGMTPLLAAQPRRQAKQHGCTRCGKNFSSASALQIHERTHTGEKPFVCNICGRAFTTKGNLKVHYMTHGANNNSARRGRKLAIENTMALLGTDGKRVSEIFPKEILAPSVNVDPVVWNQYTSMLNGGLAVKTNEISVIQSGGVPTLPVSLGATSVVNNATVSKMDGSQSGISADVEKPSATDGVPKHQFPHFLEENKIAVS
Setting: 8-mer, flanks averaged, mean of replicates
Strand | E-score
ATCCAATA | 0.189
GATCCAAA | 0.155
AGTTATGA | 0.41
ACTTGGTA | 0.18
AATCATCC | 0.0324
AATGAAGA | 0.241
CCATGAAG | -0.0165
CTTCCAAC | -0.0575
CCGGTGAA | -0.108
AGATTTAT | 0.308
CCGCGAAG | -0.264
AGGCGGAT | -0.0768
CACTGGGC | -0.35
GCATCAGC | -0.164
GGGCGCGA | -0.342
TAACAATA | 0.396
ATTTCATA | 0.368
AATGTTAG | 0.17
ACGGATAA | 0.129

Further values, each from its own experiment
Molecule | target | test | test system | setting | how to read | quantity | result
PhoQ, residues 284 288 289 292 302 303 GNNTDL | PhoP, residues 12 14 15 18 19 AQALL (Escherichia coli, UniProt P23836) | Sort-seq, item: YFP reporter | E. coli | PhoQ-PhoP variant library, added: 10 µM Mg2+ | baseline: high Mg2+ state, higher = stronger signaling | fold induction | 6.77

Excerpt of the above (series 3):
Strand | E-score
GGGCGCGA | -0.342
CCGGTGAA | -0.108
ACGGATAA | 0.129
GCATCAGC | -0.164
TAACAATA | 0.396
GATCCAAA | 0.155
